Experimental data from different studies.
Compare with care: the assays were run in different laboratories. ± gives the spread as reported.
Chain of UniProt P32245 (whole entry, looked up): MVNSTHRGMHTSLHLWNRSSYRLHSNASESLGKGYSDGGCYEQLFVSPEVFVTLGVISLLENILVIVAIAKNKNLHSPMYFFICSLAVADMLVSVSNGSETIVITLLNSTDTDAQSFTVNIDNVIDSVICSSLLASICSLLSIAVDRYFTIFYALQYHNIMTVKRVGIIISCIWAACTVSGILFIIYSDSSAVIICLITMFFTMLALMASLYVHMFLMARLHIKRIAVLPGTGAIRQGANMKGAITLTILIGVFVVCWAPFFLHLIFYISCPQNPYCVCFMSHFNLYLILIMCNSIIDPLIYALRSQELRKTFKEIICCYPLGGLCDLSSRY

Clc1ccc(Cl)c(-c2cc(Cl)ccc2Cl)c1 — organ weight (Sprague Dawley rat, liver; intraperitoneal, 10 mg/kg): 6.78 g
O[C@H]1CCCN[C@@H]1CCCn1cnc2c(Cl)c(Cl)ccc21 — Vd/F at steady state (healthy humans, plasma; oral, 150 mg, with: pirfenidone 600 mg): 921 L
N#CCNC(=O)c1ccc(-c2ccnc(Nc3ccc(N4CCOCC4=O)cc3)n2)cc1 — CLm/F (population PK model, NONMEM; human; metabolite of momelotinib, typical value, final model): 24.9 L/h
CN1CC[C@@H](c2c(O)cc(O)c3c(=O)cc(-c4ccc(C(F)(F)F)cc4Cl)oc23)[C@@H]1CO — patients with adverse event (measured: Sepsis; relapsed or refractory haematological malignancies; oral, dose not given, grade 3 to 4, all arms): 12.5%
CCCCCOc1ccc(-c2ccc(-c3ccc(C(=O)N[C@H]4C[C@@H](O)[C@@H](OCC[N+](C)(C)C)NC(=O)[C@@H]5[C@@H](O)[C@@H](C)CN5C(=O)[C@H]([C@@H](C)O)NC(=O)[C@H]([C@H](O)[C@@H](O)c5ccc(O)cc5)NC(=O)[C@@H]5C[C@@H](O)CN5C(=O)[C@H]([C@@H](C)O)NC4=O)cc3)cc2)cc1 — alkaline phosphatase (adult ICU patients, mITT, serum; dose not given, day 14): 168 U/L
C[C@@H]1OC(=O)NN=C1c1ccc(-c2ccc(F)cc2)c(C(F)(F)F)c1 — patients with adverse event (phase I trial, measured: Dyspnoea worst grade 2; human patients; 5 mg once daily): 0%
CCN1[C@@H](C(=O)NC23CCC(C(=O)O)(CC2)CC3)[C@H](c2cccc(Cl)c2F)[C@]2(C(=O)Nc3cc(Cl)ccc32)C12CCCCC2 — Hypercholesterolemia incidence (patients with advanced solid tumours; oral, 150 mg): 0%
CNC(=O)c1cc(Oc2ccc(NC(=O)Nc3cc(C(C)(C)C)nn3-c3ccc4ncccc4c3)c(F)c2)ccn1 — related SAE (NCI CTC v3.0; human patients; oral, 300 mg twice daily, dose at onset): 25%
C[C@H]1CN(c2n[nH]c3nc(N[C@H]4CC[C@H](NS(=O)(=O)CCC(F)(F)F)CC4)ncc23)CCO1 — remaining binding (Small ribosomal subunit protein uS3 (Homo sapiens, UniProt P23396); Kinobeads competition, measured: RPS3; 20 µM, unit not given; relative to: vehicle): 1.16
CO[C@H]1C[C@@H]2CC[C@@H](C)[C@@](O)(O2)C(=O)C(=O)N2CCCC[C@H]2C(=O)O[C@H]([C@H](C)C[C@@H]2CC[C@@H](OC(=O)NCCOCCOCCOCCOCCOCCOCCOCCOCCC(=O)N3CCc4cc(Cn5nc(-c6ccc7oc(N)nc7c6)c6c(N)ncnc65)ccc4C3)[C@H](OC)C2)C[C@@H](O)[C@H](C)/C=C(\C)[C@@H](O)[C@@H](OC)C(=O)[C@H](C)C[C@H](C)/C=C/C=C/C=C/1C — vomiting incidence (patients with advanced solid tumours; intravenous, 8 mg weekly, any grade): 31.3%
CC(C)C[C@H](NC(=O)[C@H](CCCCN)NC(=O)OCC1c2ccccc2-c2ccccc21)C(=O)N[C@H](C(=O)N[C@@H](Cc1ccccc1)C(=O)N[C@@H](Cc1ccccc1)C(=O)N[C@@H](CCCCN)C(=O)NCC(=O)N[C@@H](Cc1ccccc1)C(=O)N[C@@H](C)C(=O)N[C@@H](Cc1c[nH]c2ccccc12)C(=O)N[C@@H](CC(N)=O)C(=O)N[C@H](C(=O)N[C@H]1CSSC[C@@H](C(=O)N[C@@H](Cc2c[nH]cn2)C(=O)N[C@@H](CCCNC(=N)N)C(=O)N[C@@H](CCCNC(=N)N)C(=O)N[C@@H](C)C(=O)N[C@@H](CC(N)=O)C(N)=O)NC(=O)[C@H](C(C)C)NC(=O)[C@H](CCCNC(=N)N)NC(=O)[C@H](C(C)C)NC(=O)CNC(=O)[C@H](CC(N)=O)NC(=O)[C@H](CCCNC(=N)N)NC(=O)[C@H](Cc2ccc(O)cc2)NC(=O)[C@H](C(C)C)NC1=O)C(C)C)C(C)C — group interaction score (ICR mouse; ip, 10 mg/kg; direction not given): 0
CC[C@H](C)[C@@H]1NC(=O)[C@@H]2CCCN2C(=O)[C@H](CC(C)C)NC(=O)[C@H](CC(C)C)NC(=O)CNC(=O)[C@@H](NC(=O)[C@@H](NC(=O)[C@H](CC(=O)O)NC(=O)CNC(=O)[C@@H](NC(=O)[C@H](C)NC(=O)CNC(=O)[C@H](CCCCN)NC(=O)[C@H](CC(C)C)NC(=O)[C@H](CC(C)C)NC(=O)[C@H](CCCCN)NC(=O)CNC(=O)[C@@H](NC(=O)[C@@H](N)CC(C)C)C(C)C)C(C)C)C(C)C)CSSC[C@@H](C(=O)O)NC1=O — log2 fold change (RNA-seq, measured: Il2rb mRNA; mouse traumatic brain injury, frontal cortex and hippocampus; dose not given; relative to: TBI plus compound vs TBI): -2.16
O=C(Nc1ccccc1)C1CCN(C(=O)Oc2cccnc2)CC1 — subjects with Photophobia adverse event (adverse event reporting; healthy women; oral, 60 mg, 7 days): 7.1%
C[C@]1(CO)Cc2ncn(-c3ccc(C#N)c(Cl)c3)c2C(=O)O1 — Cmax (human, plasma; 80 mg single dose, geometric mean): 2.87 µM
CC[C@H](C)[C@H](NC(=O)[C@H](Cc1ccccc1)NC(=O)[C@H](CCC(=O)O)NC(=O)[C@H](CCCNC(=N)N)NC(=O)[C@H](C)NC(=O)[C@H](C)NC(=O)[C@H](CCC(N)=O)NC(=O)[C@H](CCC(=O)O)NC(=O)[C@H](CCC(=O)O)NC(=O)[C@H](CC(C)C)NC(=O)[C@H](Cc1ccc(O)cc1)NC(=O)[C@H](CO)NC(=O)[C@H](CO)NC(=O)[C@@H](NC(=O)[C@H](CC(=O)O)NC(=O)[C@H](CO)NC(=O)[C@@H](NC(=O)[C@H](Cc1ccccc1)NC(=O)[C@@H](NC(=O)CNC(=O)[C@H](CCC(=O)O)NC(=O)[C@H](C)NC(=O)CCc1cnc[nH]1)[C@@H](C)O)[C@@H](C)O)C(C)C)C(=O)N[C@@H](C)C(=O)N[C@@H](Cc1c[nH]c2ccccc12)C(=O)N[C@@H](CC(C)C)C(=O)N[C@H](C(=O)N[C@@H](CCCNC(=N)N)C(=O)NCC(=O)N[C@@H](CCCNC(=N)N)C(=O)N[C@@H](CCCCNC(=O)COCCOCCNC(=O)COCCOCCNC(=O)CC[C@H](NC(=O)CCCCCCCCCCCCCCCCC(=O)O)C(=O)O)C(=O)NCC(=O)NCC(=O)N[C@@H](CO)C(=O)N[C@@H](CCCCNC(=O)[C@H](CCCCNC(=O)[C@H](CCCCNc1c(NCCCCCN(O)C(=O)CCC(=O)NCCCCCN(O)C(=O)CCC(=O)NCCCCCN(O)C(C)=O)c(=O)c1=O)Nc1c(NCCCCCN(O)C(=O)CCC(=O)NCCCCCN(O)C(=O)CCC(=O)NCCCCCN(O)C(C)=O)c(=O)c1=O)NC(=O)[C@H](CCCCNc1c(NCCCCCN(O)C(=O)CCC(=O)NCCCCCN(O)C(=O)CCC(=O)NCCCCCN(O)C(C)=O)c(=O)c1=O)Nc1c(NCCCCCN(O)C(=O)CCC(=O)NCCCCCN(O)C(=O)CCC(=O)NCCCCCN(O)C(C)=O)c(=O)c1=O)C(=O)O)C(C)C [zirconium-89 labelled] — tissue uptake (ex vivo gamma counting; male Sprague-Dawley rats, bone marrow; intravenous, 1 nmol, 24 h): 1.77 %ID/g
COc1cc(Nc2ncc(F)c(Nc3ccc4c(n3)NC(=O)C(C)(C)O4)n2)cc(OC)c1OC — IC50 (MC4R (Homo sapiens, UniProt P32245)): > 10 µM
CC[C@H](C)[C@H](NC(=O)[C@H](CC(N)=O)NC(=O)[C@H](CCC(=O)O)NC(=O)[C@H](C)NC(=O)[C@H](Cc1c[nH]cn1)NC(=O)[C@@H](NC(=O)[C@@H]1CCCN1C(=O)[C@H](CO)NC(=O)[C@@H]1CCCN1C(=O)[C@@H](NC(=O)[C@H](Cc1ccc(O)cc1)NC(=O)[C@@H](NC(=O)[C@H](CCCNC(=N)N)NC(=O)[C@H](CO)NC(=O)[C@@H](NC(=O)[C@H](Cc1c[nH]cn1)NC(C)=O)[C@@H](C)O)[C@@H](C)CC)[C@@H](C)CC)[C@@H](C)CC)C(N)=O — random coil content (circular dichroism; water with 5% DMSO; 500 µM, 18 °C): 98%
CC[C@H](C)[C@H](N)C(=O)N[C@@H](CCCNC(=N)N)C(=O)N[C@H](C(=O)N[C@@H](Cc1c[nH]c2ccccc12)C(=O)N[C@@H](CCCCN)C(=O)N[C@@H](CCCCN)C(=O)N[C@@H](Cc1ccccc1)C(=O)N[C@H](C(=O)N[C@@H](CCCNC(=N)N)C(=O)N[C@@H](CCCCN)C(=O)N[C@@H](CCSC)C(=O)N[C@@H](CCCCN)C(=O)N[C@@H](C)C(=O)N[C@H](C(=O)N[C@@H](Cc1ccc(O)cc1)C(=O)N[C@@H](Cc1c[nH]cn1)C(N)=O)[C@@H](C)CC)C(C)C)C(C)C — elution acetonitrile content (reversed-phase UPLC; C18 column, TFA): 45.6%
CC(C)[C@@H]1CC[C@@H](C)C[C@@H]1O — alkaline phosphatase (acute oral toxicity OECD; Swiss albino mice, serum; oral, 300 mg/kg): 77 ± 6.69 U/L
Cn1cncc1-c1c(F)cncc1NC(=O)c1c(N)nn2cc(F)cnc12 — dose-limiting toxicity upper GI haemorrhage (human patients; oral, 270 mg once daily, 21 days): 25%
CCc1ccc(CC/C=C/c2ccc3c(c2)C(=O)CC3)cc1 — total protein (Sprague-Dawley rat, female, serum; oral, 450 mg/kg/day, 14 days): 58.8 g/L
NC(=O)[C@H]1CCN(c2ncnc(N)c2F)C[C@@H]1N1CCC[C@@H](Nc2cc(Cl)cc(C(F)(F)F)c2)C1=O — grade ≥3 thrombocytopenia (B-cell malignancy patients; oral, 20.5 mg twice daily, dose): 67%
COc1cc2c(Oc3ccc4[nH]c(C)cc4c3F)ccnc2cc1OCC1(N)CC1 — grade 3 gingival bleeding (paediatric recurrent refractory sarcoma; 8 mg): 0%
N#Cc1ccc(N2CCN(Cc3ccc(COc4cccc5c4CN([C@H]4CCC(=O)NC4=O)C5=O)cc3)CC2)c(F)c1 — intercompartmental clearance (population PK model; human; oral, BLQ concentrations excluded): 37.5 L/h
COc1ncccc1-c1cnn2ccc(N3CCN(C(=O)OC(C)C)CC3)nc12 — drug concentration (mouse nerve ligation model, plasma; oral, 10 mg/kg, 30 min after last dose, repeat dosing day 1): 3.2 µM
CN1CCN(S(=O)(=O)c2cc([N+](=O)[O-])ccc2N(CCOS(C)(=O)=O)CCOS(C)(=O)=O)CC1 — alkaline phosphatase (naive NOD/SCID mice, pooled blood; intraperitoneal, 18.8 mg/kg, week 4): 74 U/L
Cn1c(-c2ccc(C(N)=O)cc2F)nnc1C(C)(C)Oc1c(F)cc(Cl)cc1F — musculoskeletal disorder TEAE (human; oral, 6 mg, single ascending dose): 16.7%
C[C@@H]1NC(=O)[C@H](CCCCNC(=O)CO/N=C/C(=O)NCCCC[C@@H]2NC(=O)[C@@H](Cc3ccccc3)NC(=O)[C@H](CC(=O)O)NC(=O)CNC(=O)[C@H](CCCNC(=N)N)NC2=O)NC(=O)CNC(=O)[C@@H]2CCCN2C(=O)[C@H](CCCCNC(=O)CO/N=C/C(=O)NCCCC[C@@H]2NC(=O)[C@@H](Cc3ccccc3)NC(=O)[C@H](CC(=O)O)NC(=O)CNC(=O)[C@H](CCCNC(=N)N)NC2=O)NC(=O)[C@H](CCCCNC(=O)CN2CCCNCCNCCCNCC2)NC(=O)[C@H](CCCCNC(=O)CO/N=C/C(=O)NCCCC[C@@H]2NC(=O)[C@@H](Cc3ccccc3)NC(=O)[C@H](CC(=O)O)NC(=O)CNC(=O)[C@H](CCCNC(=N)N)NC2=O)NC(=O)CNC(=O)[C@@H]2CCCN2C(=O)[C@H](CCCCNC(=O)CO/N=C/C(=O)NCCCC[C@@H]2NC(=O)[C@@H](Cc3ccccc3)NC(=O)[C@H](CC(=O)O)NC(=O)CNC(=O)[C@H](CCCNC(=N)N)NC2=O)NC1=O [copper-64 labelled] — tissue uptake (normal mice, lung; intravenous, 0.74 MBq, 3 h post-injection): 1.98 ± 0.21 %ID/g
CC(C)(c1ccccc1)c1cc(-n2nc3ccccc3n2)c(O)c(C(C)(C)c2ccccc2)c1 — mean daily dermal uptake (exposure assessment; human, age 16-21 years; foundation): 0.41 ng/kg body weight/day
COc1ccc(-c2c(-c3ccc(C#N)c(F)c3)nc(N3CCC(N)CC3)n(C)c2=O)cc1F — treatment-related adverse event incidence (measured: Fatigue/asthenia; neuroendocrine neoplasm patients; oral, 60 mg, any grade, dose expansion): 38%
COc1ccnc(C(=O)N[C@H]2COC(=O)[C@H](Cc3ccccc3)[C@@H](OC(=O)C(C)C)[C@H](C)OC2=O)c1OCOC(=O)C(C)C — DT50 (field soil, silty clay loam; actual, northern France): 14.7 days
C=CC(=O)N1CC[C@H](n2nc(C#Cc3cc(OC)cc(OC)c3)c3c(N)ncnc32)C1 — decreased appetite, grade ≥3 (human patients; oral, dose not given, QD regimen, adverse drug reaction, with: sevelamer hydrochloride): 4.5%
CC(=O)c1c(C)c2cnc(Nc3ccc(C4CCN(CCS(C)(=O)=O)CC4)cn3)nc2n(C2CCCC2)c1=O — patients with leukopenia (HR+/HER2- advanced breast cancer patients; oral, dose not given, all grades, dose escalation, sample B patients): 78.9%
C=CCNc1c(O)cc2c(O)c1C[C@@H](C)C[C@H](OC)[C@H](O)[C@@H](C)/C=C(\C)[C@H](OC(N)=O)[C@@H](OC)/C=C\C=C(/C)C(=O)N2 — patients with vomiting TEAE (unresectable or metastatic STS, GIST, other; intravenous, 500 mg/m^2): 43%

Repeated from above:
O[C@H]1CCCN[C@@H]1CCCn1cnc2c(Cl)c(Cl)ccc21 — Vd/F at steady state (healthy humans, plasma; oral, 150 mg, with: pirfenidone 600 mg): 921 L
CC[C@H](C)[C@H](N)C(=O)N[C@@H](CCCNC(=N)N)C(=O)N[C@H](C(=O)N[C@@H](Cc1c[nH]c2ccccc12)C(=O)N[C@@H](CCCCN)C(=O)N[C@@H](CCCCN)C(=O)N[C@@H](Cc1ccccc1)C(=O)N[C@H](C(=O)N[C@@H](CCCNC(=N)N)C(=O)N[C@@H](CCCCN)C(=O)N[C@@H](CCSC)C(=O)N[C@@H](CCCCN)C(=O)N[C@@H](C)C(=O)N[C@H](C(=O)N[C@@H](Cc1ccc(O)cc1)C(=O)N[C@@H](Cc1c[nH]cn1)C(N)=O)[C@@H](C)CC)C(C)C)C(C)C — elution acetonitrile content (reversed-phase UPLC; C18 column, TFA): 45.6%
COc1ccc(-c2c(-c3ccc(C#N)c(F)c3)nc(N3CCC(N)CC3)n(C)c2=O)cc1F — treatment-related adverse event incidence (measured: Fatigue/asthenia; neuroendocrine neoplasm patients; oral, 60 mg, any grade, dose expansion): 38%
